Experimental data gathered from unrelated publications.
± marks the error that the study gave.

Structure (SMILES) | assay | test system | setting | scale | endpoint | value
CC(=O)Nc1ccc(OC(=O)CCC(=O)[O][Pt-2]23([O]C(=O)CCC(=O)Oc4ccc(NC(C)=O)cc4)([NH2+][C@@H]4CCCC[C@H]4[NH2+]2)[O]C(=O)C(=O)[O]3)cc1 | – | BALB/c mouse, 4T1 tumour | intravenous, dose not given, 27 days, every two days | reference: PBS | tumour volume reduction | 74.2%
Cc1cc(O)cc(O)c1C(=O)c1c2c3c(c(O)cc(C)c3oc1=O)C(=O)c1c(O)cc(O)cc1-2 | – | Bel-7402 xenograft, mouse | intraperitoneal, 7 mg/kg daily, day 21 | – | tumour volume | 966 ± 249 mm³
C#CCCCC(O)/C=C/C(=O)NC1(c2ccc(-c3nc4ccn5c(=O)[nH]nc5c4cc3-c3ccccc3)cc2)CCC1 (stereo not shown) | – | mouse, MDA-MB-468 xenograft | oral, 200 mg/kg twice weekly | – | tumour growth slope | 0.0438 ± 0.0022
CC=C1C(OC2OC(CO)C(O)C(O)C2O)OC=C(C(=O)OC)C1CC(=O)OCC1OC(OCCc2ccc(O)cc2)C(O)C(O)C1O (stereo not shown) | – | BALB/c mouse, orthotopic colon 26 tumour | oral, 109.2 mg/kg daily, 10 days | reference: untreated tumour group | tumour weight decrease | 24.4%
C=CC(=O)N1C[C@H](C)N(c2nc(OC[C@@]34CCCN3C[C@H](F)C4)nc3c(F)c(-c4ccc(F)c5sc(N)c(C#N)c45)c(C(F)(F)F)cc23)C[C@H]1C | – | NCI-H358 xenograft, mouse | oral, 10 mg/kg once daily, 28 days | – | tumour regression | 100%
CS(=O)(=O)c1sc(NC(=O)Nc2ccc(Cl)cc2)c2c1C=CCC2 | – | MIA PaCa-2 xenograft, mouse | intraperitoneal, 10 mg/kg daily, 28 days | – | tumour volume | 858 ± 197 mm³
Clc1ccc2ccc3[n+](c2c1)[Ir-3]12([c]4ccccc4-3)([c]3ccccc3-c3ccc4ccc(Cl)cc4[n+]31)[n+]1ccccc1-c1cccc[n+]12.F[P-](F)(F)(F)(F)F | – | BALB/c mouse, 4T1 allograft | intraperitoneal, 4 mg/kg daily, 18 days | – | tumour weight reduction | 51.7%
NC(=O)c1cccnc1.O.O=c1[nH]cc(F)c(=O)[nH]1.O=c1[nH]cc(F)c(=O)[nH]1.O=c1[nH]cc(F)c(=O)[nH]1 | – | nude mouse HCT-116 xenograft | 0.006 mmol/kg/day, 21 days | – | tumour growth inhibition | 25.6%
CC(C)[C@H](CO)Nc1nc(Nc2ccc(C(=O)NCCNS(=O)(=O)c3cccc4c(N(C)C)cccc34)c(Cl)c2)c2ncn(C(C)C)c2n1 | MRI | ND2-SmoA1 mouse medulloblastoma | intraperitoneal, 20 mg/kg three times weekly, up to 12 weeks | – | tumour volume | 0.31 ± 0.25 mm³
CCCC[C@H](NC(=O)COCCOCCNC(=O)CN1CCN(CC(=O)O)CCN(CC(=O)O)CC1)C(=O)N[C@H]1CC(=O)NCCCC[C@@H](C(N)=O)NC(=O)[C@H](Cc2c[nH]c3ccccc23)NC(=O)[C@H](CCCNC(=N)N)NC(=O)[C@@H](Cc2ccccc2)NC(=O)[C@H](Cc2c[nH]cn2)NC1=O [copper-64 labelled] | – | C57 mouse, B16/F10 melanoma | dose not given, 2 h post-injection, together with: NDP-MSH 6.07 nmol | – | tumour uptake blocked | ~88%
C[C@@H](O)[C@H](NC(=O)[C@@H]1CSSC[C@H](NC(=O)[C@@H](Cc2ccccc2)NC(=O)CCOCCOCCOCCOCCOCCOCCOCCOCCNC(=S)Nc2ccc(C[C@H]3CN(CC(=O)O)CCN(CC(=O)O)CCN3CC(=O)O)cc2)C(=O)N[C@@H](Cc2ccc(O)cc2)C(=O)N[C@H](Cc2c[nH]c3ccccc23)C(=O)N[C@@H](CCCCN)C(=O)N[C@@H]([C@@H](C)O)C(=O)N1)C(=O)O [copper-64 labelled] | – | HCT116-SSTR2, NCr nude mouse female xenograft | dose not given, 4 h, 64Cu-labelled, together with: Y3-TATE 50 µg, 30 min prior | – | tumour uptake decrease | 61%
COc1cccc2c1C(=O)c1c(O)c3c(c(O)c1C2=O)CC(O)(C(=O)CO)CC3OC1CC(NC(=O)C[C@H](N)C(=O)O)C(O)C(C)O1 (stereo partly shown) | – | mouse, HepG2 xenograft | intravenous, 5 mg/kg twice weekly, 21 days | – | tumour volume | 710 ± 105 mm³
CO.Cc1ccc2c(Cl)cc(Cl)c([O-])c2n1.Cc1ccc2c(Cl)cc(Cl)c([O-])c2n1.[Co+2].c1ccc2nc3c4cccnc4c4ncccc4c3nc2c1 | – | HeLa xenograft, nude mouse | 2.0 mg/kg every 2 days | reference: cisplatin | tumour growth reduction | ~1.3 fold
C[C@H](NC(=O)CNC(=O)[C@H](CCC(=O)O)NC(=O)[C@H](CCC(=O)O)NC(=O)[C@H](CC(=O)O)NC(=O)[C@@H]1CCCN1C(=O)[C@H](Cc1ccccc1)NC(=O)[C@H](CS)NC(=O)[C@H](Cc1ccc(O)cc1)NC(=O)CCCNC(=O)CNC(=O)CNC(=O)[C@@H](C)NC(=O)CN)C(=O)N[C@@H](CS)C(=O)N[C@@H](Cc1ccc(O)cc1)C(N)=O [technetium-99m labelled] | SPECT | BALB/c nude mouse, SKBR3 tumour | intravenous, 37 MBq, 30 min | – | tumour to non-tumour ratio | 2.19
CCN(C(=O)c1cc(F)ccc1Oc1nncnc1N1CCC2(C1)CN([C@H](CCCN(C)CCOC)C(C)C)C2)C(C)C | – | mouse, subcutaneous MOLM-14 AML xenograft | oral, 100 mg/kg daily, 5 weeks | – | tumour regression | 99%
O=c1[nH]c(N2CCC3(CC2)CN(CCO)c2cc(F)cc(F)c23)nc2c1CCCC2 | – | mouse, COLO 320DM xenograft | oral, 300 mg/kg twice daily, 11 days | – | tumour growth inhibition | 51.9%
C=CC(=O)N1CCCC(n2c(=O)c3ncccc3n(Cc3ccc(Oc4ccccc4)cc3)c2=O)C1 (stereo not shown) | – | mouse, Rec1 xenograft | intraperitoneal, 200 mg/kg, day 9 | reference: control over treated | tumour weight ratio | 2.2 fold
Clc1ccc(NN=C(c2ccccc2)c2ccccn2)nc1 | – | nude mouse, H358 xenograft | intraperitoneal, 110 mg/kg, sesame oil vehicle | reference: vehicle | tumour growth rate | decreased
CCCCCCCCCCCCCC(=O)N1CCC[C@H]1C(=O)N[C@@H](CO)C(=O)N[C@@H](CCC(N)=O)C(=O)N[C@@H](CO)C(=O)N[C@@H](CCCCNC(=O)c1ccc(Br)cc1)C(=O)N[C@@H](CO)C(=O)N[C@@H](CCCCNC(=O)c1ccc(Br)cc1)C(=O)N[C@@H](C)C(=O)O | – | female SCID mouse, AsPC-1 GFP/luciferase xenograft | intratumoral, dose not given, alternate days for one month | reference: DMSO-PBS vehicle | tumour regression | 4.8 fold

A few entries again:
Structure (SMILES) | assay | test system | setting | scale | endpoint | value
C[C@@H](O)[C@H](NC(=O)[C@@H]1CSSC[C@H](NC(=O)[C@@H](Cc2ccccc2)NC(=O)CCOCCOCCOCCOCCOCCOCCOCCOCCNC(=S)Nc2ccc(C[C@H]3CN(CC(=O)O)CCN(CC(=O)O)CCN3CC(=O)O)cc2)C(=O)N[C@@H](Cc2ccc(O)cc2)C(=O)N[C@H](Cc2c[nH]c3ccccc23)C(=O)N[C@@H](CCCCN)C(=O)N[C@@H]([C@@H](C)O)C(=O)N1)C(=O)O [copper-64 labelled] | – | HCT116-SSTR2, NCr nude mouse female xenograft | dose not given, 4 h, 64Cu-labelled, together with: Y3-TATE 50 µg, 30 min prior | – | tumour uptake decrease | 61%
